Measured values gathered from unrelated publications.
Each line is one published result; not all experiments were run side by side. ± gives the spread as reported.
Organism: Influenza A virus

CCOC(=O)C1=C[C@@H](OC(CC)CC)[C@H](NC(C)=O)[C@@H](N)C1
lung virus titre (A/WSN/33 H1N1, mouse, lung; dose not given, 24 h): 5.15 log10 TCID50/mL

CC(=O)N[C@H]1[C@H]([C@H](O)[C@H](O)CO)OC(C(=O)O)=C[C@@H]1O
EC50 (viral replication; A/Paris/0497/2007 (H1N1); 72 h): 20 µM

NC12CC3CC(CC(C3)C1)C2
EC50 (viral replication, visual CPE score; MDCK, H1N1): 89 µM

COc1ccc2cc1Oc1ccc(cc1)C[C@H]1c3c(cc4c(c3Oc3cc5c(cc3OC)CCN(C)[C@@H]5C2)OCO4)CCN1C
IC50 (viral replication; MDCK, A/Fort Monmouth/1/1947 (H1N1); 48 h): 3.1 ± 0.72 µM

CCOC(=O)C1=C[C@@H](OC(CC)CC)[C@H](NC(C)=O)[C@@H](N)C1
IC50 (viral replication; MDCK, A/Fort Monmouth/1/1947 (H1N1)): 2.01 µg/mL

COC(=O)OCOc1c2n(ccc1=O)N([C@@H]1c3ccccc3SCc3c1ccc(F)c3F)[C@@H]1COCCN1C2=O
EC50 (viral replication): 0.00304 µM

NC(=O)c1ncn([C@@H]2O[C@H](CO)[C@@H](O)[C@H]2O)n1
EC50 (cytopathic effect, neutral red; MDCK, A/California/07/2009 (H1N1)pdm09): 7.3 µg/mL

COc1ccc2cc1Oc1ccc(cc1)C[C@H]1c3cc(c(OC)cc3CCN1C)Oc1c(OC)c(OC)cc3c1[C@@H](C2)N(C)CC3
IC50 (viral replication; MDCK, A/Fort Monmouth/1/1947 (H1N1); 48 h): 5.37 ± 0.94 µM

COC(=O)N[C@H](C(=O)N1CCC[C@H]1c1ncc(-c2ccc(-c3ccc(-c4cnc([C@@H]5CCCN5C(=O)[C@@H](NC(=O)OC)C(C)C)[nH]4)cc3)cc2)[nH]1)C(C)C
EC50 (viral replication; MDBK): > 36 µM

NC(=O)c1ncn([C@@H]2O[C@H](CO)[C@@H](O)[C@H]2O)n1
IC50 (viral replication; MDCK, A/Fort Monmouth/1/1947 (H1N1)): 2.06 µg/mL

CCOC(=O)C1=C[C@@H](OC(CC)CC)[C@H](NC(C)=O)[C@@H](N)C1
neutralizing antibody titre (A/NWS/33 (H1N1), BALB/c mouse, bronchoalveolar lavage fluid and serum; oral, 0.2 mg/mouse/day, day 14; baseline: untreated infected control): decreased

COc1ccc2cc1Oc1ccc(cc1)C[C@H]1c3cc(c(OC)cc3CCN1C)Oc1c(O)c(OC)cc3c1[C@H](C2)N(C)CC3
IC50 (viral replication; MDCK, A/Fort Monmouth/1/1947 (H1N1); 48 h): 4.96 ± 1.27 µM
